Assay results of several laboratories.
A part holds a random share of what one study measured. Values joined by “and” are separate records of one study, mostly repeats; a detail may differ. ≈ marks a conversion by molar mass, not a printed value.
Sequence of UniProt P15170 (whole entry, looked up): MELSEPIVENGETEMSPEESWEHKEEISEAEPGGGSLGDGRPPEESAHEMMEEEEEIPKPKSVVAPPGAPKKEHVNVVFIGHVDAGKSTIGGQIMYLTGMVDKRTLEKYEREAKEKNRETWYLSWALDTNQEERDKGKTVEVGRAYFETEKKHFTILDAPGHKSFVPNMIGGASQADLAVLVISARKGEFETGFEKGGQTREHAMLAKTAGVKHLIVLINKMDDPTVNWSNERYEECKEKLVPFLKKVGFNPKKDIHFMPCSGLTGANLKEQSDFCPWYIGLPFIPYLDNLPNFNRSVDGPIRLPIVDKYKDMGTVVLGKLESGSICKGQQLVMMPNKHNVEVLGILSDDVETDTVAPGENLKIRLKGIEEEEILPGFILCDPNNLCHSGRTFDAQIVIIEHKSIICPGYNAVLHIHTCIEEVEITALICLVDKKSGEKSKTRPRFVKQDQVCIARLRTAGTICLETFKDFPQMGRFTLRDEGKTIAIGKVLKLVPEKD
Sequence of UniProt P48729 (whole entry, looked up): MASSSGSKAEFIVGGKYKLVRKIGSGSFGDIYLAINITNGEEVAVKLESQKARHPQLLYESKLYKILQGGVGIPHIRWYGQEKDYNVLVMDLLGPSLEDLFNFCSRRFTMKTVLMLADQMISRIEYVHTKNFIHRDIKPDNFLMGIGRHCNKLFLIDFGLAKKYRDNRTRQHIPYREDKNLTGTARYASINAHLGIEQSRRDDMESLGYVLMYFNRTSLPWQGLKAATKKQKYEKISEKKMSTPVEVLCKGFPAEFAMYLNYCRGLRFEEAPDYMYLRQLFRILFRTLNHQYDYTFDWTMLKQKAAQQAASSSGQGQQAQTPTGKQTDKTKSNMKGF

Block 1
Compound: CCCCC[C@@H](O)CC(=O)N[C@H]1COC(=O)[C@H](CO)NC(=O)[C@H](Cc2ccccc2)NC(=O)[C@@H](Cc2c[nH]c3ccccc23)NC(=O)[C@@H](C(C)O)NC(=O)[C@H](CC(N)=O)NC(=O)[C@@H](C(C)C)NC(=O)[C@H](CC(C)C)NC(=O)[C@@H](Cc2ccc(O)cc2)N(C)C(=O)CNC(=O)[C@H](CO)NC(=O)[C@@H](CC(N)=O)NC1=O (stereo partly drawn)
Organism: Staphylococcus aureus
Strain: USA300
conditions | MIC [µg/mL]
added: menaquinone 64 µg/mL | > 64
added: ubiquinone 0 µg/mL | 4 (≈ 2.64 µM)
added: menaquinone 2 µg/mL | 32 (≈ 21.2 µM)
added: menaquinone 0.125 µg/mL | 16 (≈ 10.6 µM)
added: ubiquinone 4 µg/mL | 4 (≈ 2.64 µM)
added: menaquinone 0.0625 µg/mL | 8 (≈ 5.29 µM)
added: menaquinone 0 µg/mL | 4 (≈ 2.64 µM)

Block 2
SMILES: C#CCN1C(=O)C(O)(C(=O)O)Oc2cc(F)ccc21 (stereo not drawn)
Organism: Arabidopsis thaliana
Strain: Col-0
conditions | hypocotyl length
50 µg/mL, seed germination, single repetition | 0.93 cm and 0.89 cm and 0.95 cm and 0.92 cm and 0.86 cm
6.25 µg/mL, seed germination, repetition mean | 1.95 cm
6.25 µg/mL, seed germination, single repetition | 1.95 cm and 2.06 cm and 1.93 cm and 1.89 cm
100 µg/mL, seed germination, single repetition | 0.08 cm and 0.1 cm and 0.12 cm and 0.09 cm
25 µg/mL, seed germination, single repetition | 1.47 cm and 1.43 cm and 1.4 cm and 1.41 cm
12.5 µg/mL, seed germination, single repetition | 1.72 cm and 1.65 cm and 1.67 cm and 1.63 cm and 1.83 cm

Block 3
Compound: Cn1cc(-c2cccc(CN3CCC4(CC3)COc3c4ccc4c3CN([C@H]3CCC(=O)NC3=O)C4=O)c2)cn1
Mode: degrader
CRBN/Zinc finger protein Helios: CRBN/Zinc finger protein Helios (Homo sapiens, UniProt Q96SW2+Q9UKS7)
Sequence of UniProt Q9UKS7 (whole entry, looked up): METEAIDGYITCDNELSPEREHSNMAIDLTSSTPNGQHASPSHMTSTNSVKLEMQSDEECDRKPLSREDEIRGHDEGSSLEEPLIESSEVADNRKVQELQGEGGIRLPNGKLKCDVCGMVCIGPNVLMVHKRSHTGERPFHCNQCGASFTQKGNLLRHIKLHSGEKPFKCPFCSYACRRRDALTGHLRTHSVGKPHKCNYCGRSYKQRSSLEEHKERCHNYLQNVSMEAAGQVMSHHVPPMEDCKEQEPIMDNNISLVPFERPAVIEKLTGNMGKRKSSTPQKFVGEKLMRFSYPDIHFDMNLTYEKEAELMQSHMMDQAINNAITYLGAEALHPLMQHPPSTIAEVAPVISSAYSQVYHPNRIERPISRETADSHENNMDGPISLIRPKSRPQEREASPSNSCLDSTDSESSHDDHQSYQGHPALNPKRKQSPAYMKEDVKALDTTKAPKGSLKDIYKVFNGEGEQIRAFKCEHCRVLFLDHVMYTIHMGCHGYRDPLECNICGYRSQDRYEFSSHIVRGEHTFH
Sequence of UniProt Q96SW2 (whole entry, looked up): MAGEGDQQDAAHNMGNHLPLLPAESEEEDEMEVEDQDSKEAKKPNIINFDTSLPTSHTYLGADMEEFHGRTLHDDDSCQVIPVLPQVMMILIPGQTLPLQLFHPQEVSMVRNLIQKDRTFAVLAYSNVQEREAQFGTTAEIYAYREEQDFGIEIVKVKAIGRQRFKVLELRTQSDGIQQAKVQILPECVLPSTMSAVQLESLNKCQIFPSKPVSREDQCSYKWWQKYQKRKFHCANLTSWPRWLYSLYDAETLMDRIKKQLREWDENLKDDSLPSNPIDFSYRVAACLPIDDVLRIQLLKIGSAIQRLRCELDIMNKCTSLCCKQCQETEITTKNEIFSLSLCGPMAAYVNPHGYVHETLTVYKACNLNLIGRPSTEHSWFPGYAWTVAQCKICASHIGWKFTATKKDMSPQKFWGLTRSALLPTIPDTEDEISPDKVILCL
SALL4: Sal-like protein 4 (SALL4, Homo sapiens, UniProt Q9UJQ4)
Sequence of UniProt Q9UJQ4 (whole entry, looked up): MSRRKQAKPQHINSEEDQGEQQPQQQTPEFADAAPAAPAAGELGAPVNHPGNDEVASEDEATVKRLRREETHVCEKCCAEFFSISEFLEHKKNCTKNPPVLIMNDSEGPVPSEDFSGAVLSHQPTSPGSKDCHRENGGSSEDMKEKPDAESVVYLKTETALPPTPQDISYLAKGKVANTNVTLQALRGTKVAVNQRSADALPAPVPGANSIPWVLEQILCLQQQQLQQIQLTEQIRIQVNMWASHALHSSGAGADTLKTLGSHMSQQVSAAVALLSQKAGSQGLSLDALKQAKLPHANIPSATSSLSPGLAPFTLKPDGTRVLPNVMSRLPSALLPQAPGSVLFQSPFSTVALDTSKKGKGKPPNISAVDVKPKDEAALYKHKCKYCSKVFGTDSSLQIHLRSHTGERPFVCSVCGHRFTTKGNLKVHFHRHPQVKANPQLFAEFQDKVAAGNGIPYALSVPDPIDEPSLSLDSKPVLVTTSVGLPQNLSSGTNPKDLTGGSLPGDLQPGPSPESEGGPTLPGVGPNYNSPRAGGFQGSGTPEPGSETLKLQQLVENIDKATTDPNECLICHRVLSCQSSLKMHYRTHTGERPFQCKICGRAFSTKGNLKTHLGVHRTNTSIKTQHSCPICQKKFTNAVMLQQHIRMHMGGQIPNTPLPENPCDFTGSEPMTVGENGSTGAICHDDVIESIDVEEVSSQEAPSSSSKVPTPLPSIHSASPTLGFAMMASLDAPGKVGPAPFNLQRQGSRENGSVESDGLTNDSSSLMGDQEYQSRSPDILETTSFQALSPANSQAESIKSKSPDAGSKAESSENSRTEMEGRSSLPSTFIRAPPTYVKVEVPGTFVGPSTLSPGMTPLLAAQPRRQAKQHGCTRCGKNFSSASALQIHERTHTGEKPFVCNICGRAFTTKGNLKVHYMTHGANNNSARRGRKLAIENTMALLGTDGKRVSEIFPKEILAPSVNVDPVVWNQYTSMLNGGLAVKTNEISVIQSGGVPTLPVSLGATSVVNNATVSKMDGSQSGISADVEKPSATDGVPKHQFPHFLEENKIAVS
IKZF4: Zinc finger protein Eos (IKZF4, Homo sapiens, UniProt Q9H2S9)
Sequence of UniProt Q9H2S9 (whole entry, looked up): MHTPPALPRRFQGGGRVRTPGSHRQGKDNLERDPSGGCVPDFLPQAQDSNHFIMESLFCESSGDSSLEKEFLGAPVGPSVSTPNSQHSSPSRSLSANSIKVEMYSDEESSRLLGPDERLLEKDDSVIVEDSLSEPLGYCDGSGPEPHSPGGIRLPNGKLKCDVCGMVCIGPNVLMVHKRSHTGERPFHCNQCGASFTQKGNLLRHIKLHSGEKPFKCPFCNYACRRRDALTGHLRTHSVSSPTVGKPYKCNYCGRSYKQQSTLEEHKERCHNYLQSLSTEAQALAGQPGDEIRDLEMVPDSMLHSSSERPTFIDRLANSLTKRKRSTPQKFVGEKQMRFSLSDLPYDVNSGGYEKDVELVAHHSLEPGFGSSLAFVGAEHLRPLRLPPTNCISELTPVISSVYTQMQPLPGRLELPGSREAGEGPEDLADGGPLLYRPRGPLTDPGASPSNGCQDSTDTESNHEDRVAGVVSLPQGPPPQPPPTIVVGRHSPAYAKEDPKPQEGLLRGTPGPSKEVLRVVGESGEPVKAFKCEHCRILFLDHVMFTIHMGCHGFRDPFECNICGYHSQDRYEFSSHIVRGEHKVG
DNA-binding protein Ikaros: DNA-binding protein Ikaros (Homo sapiens, UniProt Q13422)
Sequence of UniProt Q13422 (whole entry, looked up): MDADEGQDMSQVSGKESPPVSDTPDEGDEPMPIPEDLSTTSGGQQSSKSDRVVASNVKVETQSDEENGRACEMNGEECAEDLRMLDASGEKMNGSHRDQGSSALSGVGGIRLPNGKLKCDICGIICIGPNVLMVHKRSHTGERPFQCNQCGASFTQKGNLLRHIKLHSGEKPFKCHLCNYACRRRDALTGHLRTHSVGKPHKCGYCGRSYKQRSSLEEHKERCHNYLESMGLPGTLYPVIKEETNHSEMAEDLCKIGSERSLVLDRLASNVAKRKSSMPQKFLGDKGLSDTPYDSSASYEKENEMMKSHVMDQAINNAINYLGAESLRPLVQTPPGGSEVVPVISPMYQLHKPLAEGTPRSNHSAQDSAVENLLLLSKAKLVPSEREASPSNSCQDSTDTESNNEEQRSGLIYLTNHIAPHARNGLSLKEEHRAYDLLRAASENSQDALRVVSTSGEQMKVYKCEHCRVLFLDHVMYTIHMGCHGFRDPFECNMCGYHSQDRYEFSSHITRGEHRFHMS
target | assay | test system | conditions | remaining protein
CRBN/Zinc finger protein Helios | flow cytometry | primary human regulatory T cells | 0.1524 nM, 3 h | 102% and 98.1%
SALL4 | HiBiT | HEK293 | 3333.33 nM | 65.4% and 69.2%
IKZF4 | HiBiT | HEK293 | 111.1 nM, 3 h | 102% and 101%
CRBN/Zinc finger protein Helios | flow cytometry | primary human regulatory T cells | 37.04 nM, 6 h | 11% and 17.7%
SALL4 | HiBiT | HEK293 | 10000 nM | 65% and 78%
CRBN/Zinc finger protein Helios | flow cytometry | Jurkat | 0.5 nM | 102% and 92.2%
DNA-binding protein Ikaros | HiBiT | HEK293 | 41.15 nM | 97.8% and 96.1%
GSPT1 (Homo sapiens, UniProt P15170) | HiBiT | HEK293 | 123.5 nM | 97.5% and 101%
CRBN/Zinc finger protein Helios | flow cytometry | primary human regulatory T cells | 0.05081 nM, 6 h | 98.7% and 102%
IKZF4 | HiBiT | HEK293 | 1000 nM, 3 h | 126% and 111%
CSNK1A1 (Homo sapiens, UniProt P48729) | HiBiT | HEK293 | 1111.11 nM | 99.6% and 93.7%
DNA-binding protein Ikaros | HiBiT | HEK293 | 3333.33 nM | 91.1% and 90.3%
CRBN/Zinc finger protein Helios | flow cytometry | Jurkat | 111 nM | 39.1% and 45.3%
SALL4 | HiBiT | HEK293 | 1.524 nM | 86.3% and 80.5%

Further values, each from its own experiment
Cell line: L929
Method: CCK-8
SMILES | assay | conditions | viability
Cc1cc(-c2cnc(N)c3c(-c4ccc5scnc5c4)csc23)n(C)n1 | necroptosis protection | 5 µM, added: TNF-α-induced | 75.4%
Cc1c(NC(=O)c2cccn(-c3ccc(F)cc3)c2=O)ccc(Oc2ccnc(NC(=O)C3CC3)c2)c1C | – | 50 µM | 70.4% and 72.5% and 71.4% and 70.9% and 70.3%
CC(C)(C)n1nc(-c2ccc(Cl)cc2)c2c(N)ncnc21 | necroptosis protection | 0.156 µM, added: TNF-α-induced | 36.7%

Some of these lines once more (block 1):
conditions | MIC [µg/mL]
added: menaquinone 0 µg/mL | 4 (≈ 2.64 µM)
added: ubiquinone 0 µg/mL | 4 (≈ 2.64 µM)
added: ubiquinone 4 µg/mL | 4 (≈ 2.64 µM)
added: menaquinone 64 µg/mL | > 64
added: menaquinone 0.0625 µg/mL | 8 (≈ 5.29 µM)
